Measurements of several laboratories.
Numbered parts are unrelated; each lists some results of a single study. Substitutions count along the parent as printed.

Block 1
Target: ABI1, truncated, D143A, DHFR fusion (Arabidopsis thaliana, UniProt P49597)
Technique: DHFR PCA, dose-response
Matrix: yeast
Setting: Hill fit, not affinity, not high confidence
Added: (+)-ABA, dose series
Reading: lower = more sensitive
Starting sequence: PYL1, truncated, DHFR fusion (Arabidopsis thaliana, UniProt Q8VZS8); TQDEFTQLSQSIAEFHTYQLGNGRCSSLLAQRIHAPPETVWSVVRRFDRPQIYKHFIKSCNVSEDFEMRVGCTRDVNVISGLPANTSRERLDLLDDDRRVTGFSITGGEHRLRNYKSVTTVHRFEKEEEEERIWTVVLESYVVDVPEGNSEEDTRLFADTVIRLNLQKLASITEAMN
Substitution	ABA EC50 [µM]
P50N	4.53
R74A	0.0287
Y115A	15.5
L169K	4.04
I57K	24
L138G	2.67
V137K	2.28
A170Y	777
P83L	725
G108W	1880
V40S	940
V118E	356
I57W	0.764
F47T	41
Y115D	0.0789
H110T	358
V137F	18.9

Block 2
Target: CCNA1, cyclin fold, Cln2 fusion (human)
Technique: yeast growth competition, sequencing
Matrix: yeast
Setting: weak parent motif
Baseline: not given
Reading: higher = stronger binding
Starting sequence: HASPIN docking peptide (human); ASLRSVLFGLMNS; partner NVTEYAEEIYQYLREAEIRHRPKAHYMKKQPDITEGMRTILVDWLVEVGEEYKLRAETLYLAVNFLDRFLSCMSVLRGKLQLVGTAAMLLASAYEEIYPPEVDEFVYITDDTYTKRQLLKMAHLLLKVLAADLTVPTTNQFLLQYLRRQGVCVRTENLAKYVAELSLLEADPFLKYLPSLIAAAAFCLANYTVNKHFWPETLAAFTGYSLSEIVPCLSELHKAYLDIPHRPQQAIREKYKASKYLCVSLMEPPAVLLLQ
Substitution	normalised enrichment score
ASARSVLFGLMNS [L3A]	-0.0974
ASLRSVLFGLMNA [S13A]	0.275
ASLRSALFGLMNS [V6A]	-0.226
ASLRSVLFGLMAS [N12A]	-0.178
AALRSVLFGLMNS [S2A]	-0.766
ASLRSVLFALMNS [G9A]	-0.118

Block 3
Target: Interferon regulatory factor 3, full length, phosphomimetic (IRF3, Homo sapiens, UniProt Q14653, residues 1-427, S386D/S396D/S398D/S402D/T404D/S405D)
Technique: protein-binding microarray
Molecule type: double-stranded DNA, one strand shown
Matrix: in vitro
Concentration: 2540 nM top
Setting: 60-bp whole probe
Added: salmon DNA 0.4 mg/ml
Baseline: random background probes
Reading: higher = stronger binding
Shared flanks, not repeated: GCCTAGCAC … GTCTTGATTCGCTTGACGCTGCTG
Target sequence (chain): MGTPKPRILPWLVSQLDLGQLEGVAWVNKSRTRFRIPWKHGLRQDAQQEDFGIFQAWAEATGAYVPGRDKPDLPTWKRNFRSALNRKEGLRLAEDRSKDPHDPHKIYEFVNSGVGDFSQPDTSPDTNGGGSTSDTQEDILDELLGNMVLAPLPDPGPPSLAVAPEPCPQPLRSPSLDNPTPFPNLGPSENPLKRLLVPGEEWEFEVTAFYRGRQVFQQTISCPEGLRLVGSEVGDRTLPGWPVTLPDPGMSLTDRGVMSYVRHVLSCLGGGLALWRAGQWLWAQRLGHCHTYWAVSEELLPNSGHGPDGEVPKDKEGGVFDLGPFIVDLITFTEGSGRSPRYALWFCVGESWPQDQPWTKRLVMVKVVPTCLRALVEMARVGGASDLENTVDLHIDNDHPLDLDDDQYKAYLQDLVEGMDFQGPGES
Strand	fitted relative affinity [z-score]
TCAGTTTTTGCTTTCCTACTGTGCTAG	3.26
GACGGTTGCGGTCTCGGGACGTGCTAG	4
TTAGATATTAGTATCGATTAGTGCTAG	0.993
GTGTTTCTCAAATGTTTTGTTGTGCTA	1.13
GACGGACTGGACGTTCGGGACGTGCTA	-0.377
GACGGAATGCTACTGCTGACGTGCTAG	-0.473
GACGATTGCAGTATCGAGACGTGCTAG	0.825
TCAGGTTCCGGTTTCGGTTAGTGCTAG	7.8
TTAGGTATCGCGTATCGGTTAGTGCTA	0.994
TTAGGTTTTGGACTGGGTTAGTGCTAG	0.578
TTGGGTATCGGTTTCGGTTAGTGCTAG	7.91
TCAACACTAATTTTTACACTGTGCTAG	0.121
ATATATGTATATATGTGTATGTGCTAG	0.588
TCACAAGTCTTGTTTTACACTGTGCTA	0.25
TCATCTTTCTCTGCTACCACTGTGCTA	1.9
CTCTGCTTGTATCTGGGTTCGTGCTAG	-0.247
GACGGTTTCGGTTTCGGGACGTGCTAG	11
TTAGGACGGGGTATCGGTTAGTGCTAG	0.293
TCAACTCCAGTTCTGGGACTGTGCTAG	0.19
GACGGTTGCGGTATCGGGACGTGCTAG	3.68
TCAATTCTCTGCTTGGGACTGTGCTAG	0.575

Block 4
Target: RNA binding protein fox-1 homolog 2, RRM domain, GST-SBP tag (RBFOX2, Homo sapiens, UniProt O43251-10, residues 100-194)
Technique: RNA Bind-n-Seq
Molecule type: RNA
Matrix: in vitro
Concentration: 365 nM
Setting: natural RNA segment, single round, ends assumed
Baseline: no-protein control
Reading: higher = stronger binding
Shared flanks, not repeated: GGGAGUUCUACAGUCCGACGAUC … UGGAAUUCUCGGGUGCCAA
Residues (chain): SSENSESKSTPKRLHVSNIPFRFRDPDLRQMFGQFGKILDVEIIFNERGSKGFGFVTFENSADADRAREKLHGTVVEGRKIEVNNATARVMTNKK
Strand	RBNS enrichment (R)
CCAUUACUUACCUAGUCAUUGUGGAACAUGACUAUGGAGAGCAUUGUAUAUUUCUAUCUGGUAGUAAUGUGUAUUUACAACAUCUGUCACUGCAGUGUUACCGGAGCUUC	0.805
GGUGUGUCAGGGACUCUGUUUACUUGAAGACUGUGUGCAGUUGCCAGUUCGUCUCCCUGCUGUCUUUGAGCUAGGACUCAUAAUUUCCCUACAAAGGUCUCUGGUUAAAA	0.431
CUUCUCUUUUUCGACAAUGGUAGACAUGAAUGAGAUAUUUAAAGUUCAUUGGAAAUCUUCUUCCCUACAGCAGUAAGCAAAAAUUAGCAAAGAGAUAGUCUAAAUGGCCU	0.364
UAAGAUCUGAACAUCAGUUUGCAGACAAAAUUAAAUUAGAGCUUUAUUUUAUUUGGAGAAGAGGGAUACAAUGGAAUUUUUCCUUACCAAUUAGAAAUAAUUGUAAUGCC	0.715
CAGAGGACAGGGGCUAAUGAGCUGCUCAGAGCUGCCCUGCCCCUGCUUCUGAACACUGCUUUCCACACAAGCACGGGCAAGUCCCCUUUACCCUUGGAUCAGCCAAGCCA	0.28
AGUCCCAGCUACUUGGGAGGCUGAGGUAGGAGAAUUGCUUGAACCUGGGAGGCGGAGGUUGCGGUGAGCUGAGAUCACGCCACUACACUCCAGCCUGGUGACAGAGCAAG	0.426
UAUUAUGGGGACACAGGAAAGACCUCAGCCUCAGUUGUAAACCUGCUCUUUGUCUGCUCAAAGGAAACUUGAAAUAUCUGAGUAAAAGUCAAAGAAACCCAGCUAAGUAA	0.325
CGAUUGCAUUUAUUAAGCAUCUUUCUGCUCCCGACUUUCUGGUGUCUCUGGCACCAAAUAACCCAGCAGACAUGAGCCUUGCCUUCUGAGAUUUUAGAAUCUAAGAUAGC	0.777
GCCAGUGUGUGGCACCCCUCCCCCCCCAACUUCCAUUCCUGAUCUUAGGCAAGUUCUUGGAGUCUGCUCCCAGAUGGCAUCGGCUCUGAGAUACCGGUUACUUCCCUGGU	0.875
AGAAUGAAAUGAAUGAUUCUACAGCUAGGACUUAACCUUGAAAUGGAAAGUCAUGCAAUCCCAUUUGCAGGAUCUGUCUGUGCACAUGCCUCUGUAGAGAGCAGCAUUCC	0.773
AAAUAAGGAAAAUGAUACUGCUGGUUGGUUCCUGCUAGCAUCUCUGAACAAAGGACAAAGGGAAAGAAUGCGCUGCUUGAUAAAAUUAACCAAAUUCUAGCAUCUCAGAG	2.86
UACAUUUAAAACUCAGCAUUAGUGCAUUGGGAAGGAUCUUUACUGCUUUGUGCUUGGCAUGUCGUUAUUUUCCAUUUGACAUUAGGGCCUUUCCAAAUGAAUGUGAGGAG	1.38
